# Measured values collected from several papers.
# Compare with care: the assays were run in different laboratories. Several values in a cell are separate wells, animals, samples, runs or records. ± marks the error that the study gave.
# NTRK3: NT-3 growth factor receptor (NTRK3, Homo sapiens, UniProt Q16288)
# Chain of UniProt Q16288 (whole entry, looked up): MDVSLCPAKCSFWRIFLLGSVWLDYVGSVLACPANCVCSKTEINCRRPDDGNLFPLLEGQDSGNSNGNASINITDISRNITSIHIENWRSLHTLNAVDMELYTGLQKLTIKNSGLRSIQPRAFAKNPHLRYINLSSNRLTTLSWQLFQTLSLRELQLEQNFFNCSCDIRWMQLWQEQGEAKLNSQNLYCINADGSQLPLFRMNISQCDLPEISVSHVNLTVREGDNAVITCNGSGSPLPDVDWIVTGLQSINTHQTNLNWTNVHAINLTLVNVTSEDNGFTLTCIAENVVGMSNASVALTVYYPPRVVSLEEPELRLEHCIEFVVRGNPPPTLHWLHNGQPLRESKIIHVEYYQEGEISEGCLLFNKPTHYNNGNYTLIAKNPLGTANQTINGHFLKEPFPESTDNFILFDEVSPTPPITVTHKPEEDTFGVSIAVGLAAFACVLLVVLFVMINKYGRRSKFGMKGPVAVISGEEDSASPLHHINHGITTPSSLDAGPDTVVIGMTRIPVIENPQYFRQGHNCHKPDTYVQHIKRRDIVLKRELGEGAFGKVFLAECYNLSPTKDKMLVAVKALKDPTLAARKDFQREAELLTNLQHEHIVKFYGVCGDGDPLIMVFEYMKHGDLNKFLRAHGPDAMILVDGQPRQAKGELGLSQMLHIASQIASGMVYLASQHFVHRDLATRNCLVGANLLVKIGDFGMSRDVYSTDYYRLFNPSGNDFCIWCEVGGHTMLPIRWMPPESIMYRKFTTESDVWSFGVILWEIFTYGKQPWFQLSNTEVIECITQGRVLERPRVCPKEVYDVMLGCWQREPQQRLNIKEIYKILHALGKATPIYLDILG
# DRD2: D(2) dopamine receptor (DRD2, Homo sapiens, UniProt P14416)
# Chain of UniProt P14416 (whole entry, looked up): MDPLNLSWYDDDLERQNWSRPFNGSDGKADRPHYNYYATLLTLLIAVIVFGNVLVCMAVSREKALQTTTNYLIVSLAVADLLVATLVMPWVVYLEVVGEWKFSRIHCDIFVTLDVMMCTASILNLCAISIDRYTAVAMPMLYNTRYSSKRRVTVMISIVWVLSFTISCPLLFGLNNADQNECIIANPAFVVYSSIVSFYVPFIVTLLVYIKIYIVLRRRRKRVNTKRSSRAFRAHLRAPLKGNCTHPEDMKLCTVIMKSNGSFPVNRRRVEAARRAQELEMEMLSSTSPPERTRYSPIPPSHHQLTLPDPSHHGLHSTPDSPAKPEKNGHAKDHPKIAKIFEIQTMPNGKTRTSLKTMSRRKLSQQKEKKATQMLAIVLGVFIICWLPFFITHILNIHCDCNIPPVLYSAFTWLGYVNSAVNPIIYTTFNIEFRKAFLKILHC
# 60 kDa heat shock protein, mitochondrial with HSP10: 60 kDa heat shock protein, mitochondrial, with HSP10 (Homo sapiens, UniProt P10809)
# Chain of UniProt P10809 (whole entry, looked up): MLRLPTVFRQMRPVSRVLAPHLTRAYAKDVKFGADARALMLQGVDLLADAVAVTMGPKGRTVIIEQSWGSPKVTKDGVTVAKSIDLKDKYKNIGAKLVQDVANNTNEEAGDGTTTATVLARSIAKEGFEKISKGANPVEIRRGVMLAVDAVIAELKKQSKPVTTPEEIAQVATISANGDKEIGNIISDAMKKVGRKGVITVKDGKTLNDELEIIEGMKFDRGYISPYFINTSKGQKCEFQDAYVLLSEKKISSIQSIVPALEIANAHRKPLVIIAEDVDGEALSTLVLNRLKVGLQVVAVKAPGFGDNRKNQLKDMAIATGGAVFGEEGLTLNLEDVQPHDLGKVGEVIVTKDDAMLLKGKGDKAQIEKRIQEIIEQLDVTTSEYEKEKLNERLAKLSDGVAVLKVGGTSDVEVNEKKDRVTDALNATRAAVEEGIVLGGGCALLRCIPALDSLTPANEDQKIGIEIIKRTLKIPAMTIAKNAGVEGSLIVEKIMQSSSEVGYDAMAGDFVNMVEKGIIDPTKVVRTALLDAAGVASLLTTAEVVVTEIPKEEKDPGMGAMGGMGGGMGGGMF
# DNA polymerase catalytic subunit: DNA polymerase catalytic subunit (Human cytomegalovirus, UniProt P08546)
# Lysine--tRNA ligase, cytoplasmic: Lysine--tRNA ligase, cytoplasmic (Arabidopsis thaliana, UniProt Q9ZPI1)
# Chain of UniProt Q9ZPI1 (whole entry, looked up): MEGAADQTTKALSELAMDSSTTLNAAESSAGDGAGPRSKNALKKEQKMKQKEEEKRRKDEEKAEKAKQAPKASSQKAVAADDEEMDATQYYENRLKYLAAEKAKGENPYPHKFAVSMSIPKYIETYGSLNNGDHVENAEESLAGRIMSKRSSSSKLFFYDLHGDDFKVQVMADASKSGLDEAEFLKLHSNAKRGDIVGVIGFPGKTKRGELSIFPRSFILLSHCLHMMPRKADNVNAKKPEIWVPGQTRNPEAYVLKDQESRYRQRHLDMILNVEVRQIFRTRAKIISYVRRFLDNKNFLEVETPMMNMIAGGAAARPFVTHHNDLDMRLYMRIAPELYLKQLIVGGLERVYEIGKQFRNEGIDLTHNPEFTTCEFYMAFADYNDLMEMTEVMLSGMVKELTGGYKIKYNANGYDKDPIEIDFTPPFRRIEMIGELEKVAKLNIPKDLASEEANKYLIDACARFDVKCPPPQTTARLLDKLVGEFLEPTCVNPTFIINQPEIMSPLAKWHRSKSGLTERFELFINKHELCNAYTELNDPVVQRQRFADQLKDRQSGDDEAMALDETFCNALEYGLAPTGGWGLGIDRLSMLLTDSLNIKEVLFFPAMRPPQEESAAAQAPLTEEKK
# CDK6 with cyclin D1: Cyclin-dependent kinase 6, with cyclin D1 (CDK6, Homo sapiens, UniProt Q00534)
# Chain of UniProt Q00534 (whole entry, looked up): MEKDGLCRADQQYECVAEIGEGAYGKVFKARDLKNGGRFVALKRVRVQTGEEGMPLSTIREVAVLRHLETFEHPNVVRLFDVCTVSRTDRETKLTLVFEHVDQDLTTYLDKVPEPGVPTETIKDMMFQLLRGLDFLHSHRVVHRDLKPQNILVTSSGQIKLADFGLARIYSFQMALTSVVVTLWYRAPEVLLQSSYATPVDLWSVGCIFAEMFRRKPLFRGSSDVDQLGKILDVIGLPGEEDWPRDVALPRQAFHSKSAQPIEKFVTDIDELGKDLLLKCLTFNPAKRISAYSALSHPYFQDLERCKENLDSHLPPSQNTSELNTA
# KRAS with SOS1: GTPase KRas, with SOS1 (KRAS, Homo sapiens, UniProt P01116)
# CSNK1E: Casein kinase I isoform epsilon (CSNK1E, Homo sapiens, UniProt P49674)
# Chain of UniProt P49674 (whole entry, looked up): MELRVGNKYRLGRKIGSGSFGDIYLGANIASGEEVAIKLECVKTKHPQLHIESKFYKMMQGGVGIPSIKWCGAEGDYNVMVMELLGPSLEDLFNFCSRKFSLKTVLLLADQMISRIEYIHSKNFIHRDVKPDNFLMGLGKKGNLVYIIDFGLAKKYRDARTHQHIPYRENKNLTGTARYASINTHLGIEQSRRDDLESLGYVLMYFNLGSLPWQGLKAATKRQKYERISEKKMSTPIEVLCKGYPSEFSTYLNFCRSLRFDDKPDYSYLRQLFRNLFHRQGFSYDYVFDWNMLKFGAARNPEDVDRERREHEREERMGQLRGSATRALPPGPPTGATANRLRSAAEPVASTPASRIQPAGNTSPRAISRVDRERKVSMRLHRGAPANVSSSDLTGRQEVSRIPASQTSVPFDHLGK
# PTGS2: Prostaglandin G/H synthase 2 (PTGS2, Homo sapiens, UniProt P35354)
# Chain of UniProt P35354 (whole entry, looked up): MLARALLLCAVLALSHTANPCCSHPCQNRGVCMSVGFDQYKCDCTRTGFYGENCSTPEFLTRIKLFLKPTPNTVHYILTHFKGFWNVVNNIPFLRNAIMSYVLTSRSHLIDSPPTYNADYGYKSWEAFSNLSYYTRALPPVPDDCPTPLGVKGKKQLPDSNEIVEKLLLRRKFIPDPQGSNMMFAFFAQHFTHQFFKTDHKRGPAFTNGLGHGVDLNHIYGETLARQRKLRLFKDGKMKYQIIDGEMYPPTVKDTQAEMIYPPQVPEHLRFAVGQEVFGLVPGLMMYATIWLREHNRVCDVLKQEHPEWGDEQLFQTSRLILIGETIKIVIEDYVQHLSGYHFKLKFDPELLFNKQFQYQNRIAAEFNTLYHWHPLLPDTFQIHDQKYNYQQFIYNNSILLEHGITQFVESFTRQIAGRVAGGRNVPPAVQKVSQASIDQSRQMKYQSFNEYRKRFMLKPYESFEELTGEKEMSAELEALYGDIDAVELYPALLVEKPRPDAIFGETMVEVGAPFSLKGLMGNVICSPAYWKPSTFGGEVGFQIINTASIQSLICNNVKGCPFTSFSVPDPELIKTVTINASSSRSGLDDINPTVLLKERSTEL
# MCL1: Induced myeloid leukemia cell differentiation protein Mcl-1 (MCL1, Homo sapiens, UniProt Q07820)
# Chain of UniProt Q07820 (whole entry, looked up): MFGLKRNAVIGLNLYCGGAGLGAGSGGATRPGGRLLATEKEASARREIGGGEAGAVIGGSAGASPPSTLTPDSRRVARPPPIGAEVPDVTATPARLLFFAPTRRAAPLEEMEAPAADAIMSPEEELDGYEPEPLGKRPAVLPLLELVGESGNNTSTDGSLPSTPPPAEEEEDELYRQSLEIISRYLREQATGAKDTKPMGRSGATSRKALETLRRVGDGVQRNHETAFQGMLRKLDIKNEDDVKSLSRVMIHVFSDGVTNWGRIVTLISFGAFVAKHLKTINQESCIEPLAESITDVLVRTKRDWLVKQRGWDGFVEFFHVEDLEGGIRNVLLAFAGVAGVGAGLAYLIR
# TAF1L BD2: Transcription initiation factor TFIID subunit 1-like, BD2 (TAF1L, Homo sapiens, UniProt Q8IZX4)
# Chain of UniProt Q99572 (whole entry, unmodified, looked up): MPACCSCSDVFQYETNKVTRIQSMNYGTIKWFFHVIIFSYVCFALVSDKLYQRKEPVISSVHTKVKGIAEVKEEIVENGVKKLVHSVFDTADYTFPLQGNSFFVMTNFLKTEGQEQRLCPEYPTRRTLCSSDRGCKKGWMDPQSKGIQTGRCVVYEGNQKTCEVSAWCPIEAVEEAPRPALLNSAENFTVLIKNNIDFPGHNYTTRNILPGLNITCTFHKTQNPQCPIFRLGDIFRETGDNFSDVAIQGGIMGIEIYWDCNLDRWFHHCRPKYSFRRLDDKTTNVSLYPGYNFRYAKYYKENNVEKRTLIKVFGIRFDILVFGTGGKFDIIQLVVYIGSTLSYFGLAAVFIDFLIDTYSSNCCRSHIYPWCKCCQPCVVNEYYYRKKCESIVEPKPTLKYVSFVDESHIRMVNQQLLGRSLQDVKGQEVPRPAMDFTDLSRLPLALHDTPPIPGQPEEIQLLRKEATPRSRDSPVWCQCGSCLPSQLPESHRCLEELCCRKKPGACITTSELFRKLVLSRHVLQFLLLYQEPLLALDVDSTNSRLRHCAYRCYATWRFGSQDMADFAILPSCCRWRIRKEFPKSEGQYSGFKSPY
Compound,target,assay,test system,conditions,IC50
Cc1cnc(-c2ccc(-c3ccc(NC(=O)Nc4c(F)cc(F)cc4F)cc3F)c3c2C(=O)NC3)[nH]1,NTRK3,"enzyme activity, inhibitor, mobility shift",,together with: ATP 1 mM,2.7 nM
CCCCN(CCCC)C(=O)c1c(C)[nH]c(C)c1S(=O)(=O)Nc1ccc(C(F)(F)F)c(Cl)c1,DRD2,,,,> 100000 nM
O=C(O)c1cccnc1Nc1cccc(C(F)(F)F)c1,"Transcriptional enhancer factor TEF-3 (TEAD4, Homo sapiens, UniProt Q15561)","thiol conjugation, inhibitor, CPM",,pH 6.5,29900 nM
Cc1nn(C)c2ncc(C(=O)NCC3CC(Br)=NO3)c(Cl)c12 (stereo not drawn),"60 kDa heat shock protein, mitochondrial with HSP10",ATPase activity,,"30 min, together with: HSP10",> 250000 nM
Cc1ccc2[nH]nc(-c3nnc(Nc4ccc(Br)cc4)s3)c2c1,α-glucosidase,"enzyme activity, inhibitor",,"pH 6.8, together with: p-nitrophenyl-α-D-glucopyranoside",11100 ± 1430 nM
CC1(F)CN(C(=O)Cn2c(=O)c(C(=O)NCc3ccc(Cl)cc3)cc3nc(N4CCN(CC(=O)O)C4=O)cnc32)C1,DNA polymerase catalytic subunit,enzyme activity,,retest,580 nM
CCCN(CCC)C(=O)c1c(C)[nH]c(C)c1S(=O)(=O)Nc1ccc(C(F)(F)F)c(Cl)c1,DRD2,,,,> 100000 nM
Cc1cc(Nc2ccc3ncn([C@@H]4CCc5ccc(F)cc54)c3n2)[nH]n1,"Tyrosine-protein kinase JAK1 (JAK1, Homo sapiens, UniProt P23458)","enzyme activity, inhibitor",,,1.65 ± 0.8 nM
C#Cc1c(N)nsc1C(=O)NCC1CCCC1,"Lysine--tRNA ligase, cytoplasmic","enzyme activity, inhibitor",,,3980 nM
CN(C)C(=O)c1cc2cnc(Nc3ccc4c(=O)cc(N5CCNCC5)oc4c3)nc2n1C1CCCC1,CDK6 with cyclin D1,"inhibitor, HotSpot radiometric kinase",,"together with: 10 µM ATP, cyclin D1",11 nM
CC1(C)COc2ccc(F)cc2CN2c3nc4c(cnn4cc3OC[C@H]2C(F)F)C(=O)N1,"BDNF/NT-3 growth factors receptor (NTRK2, Homo sapiens, UniProt Q16620)","enzyme activity, inhibitor",,together with: 1 mM ATP,0.3 nM
C[C@H]1CNCCN1c1nccc(-c2noc([C@@]3(C)CCCc4sc(N)c(C#N)c43)n2)n1,KRAS with SOS1,"KRAS wild type-SOS1 interaction, inhibitor, AlphaScreen",,geometric mean,131 nM
Fc1ccc(-c2nc(-c3c(Cl)cccc3Cl)[nH]c2-c2ccncc2)cc1,CSNK1E,inhibitor,,,31.5 ± 3.2 nM
CCCCCCCCCCCCCC(C)=O,"uncharacterized protein (Spodoptera exigua, UniProt F1CEY0)","binding, fluorescence competitive binding",,together with: 1-NPN 2.0 µM,11100 nM
CCOC(=O)/C=C/c1ccc(OC)cc1,PTGS2,inhibitor,,,830 nM
Cc1[nH]c(C)c(S(=O)(=O)Nc2ccc(C(F)(F)F)c(Cl)c2)c1C(=O)NCC(F)(F)F,DRD2,,,,> 100000 nM
COc1ccccc1C[C@@H](Oc1cccc2cc(-c3ccc(F)cc3)n(-c3ccc(OCCN4CCN(C)CC4)c(Cl)c3C)c12)C(=O)O,MCL1,,,,47 nM
Cc1[nH]c(C)c(S(=O)(=O)Nc2ccc(C(=O)C(F)(F)F)c(Cl)c2)c1C(=O)N1CCC(F)(F)C1,DRD2,,,,> 100000 nM
C#Cc1c(N)nsc1C(=O)NCc1ccc(F)cc1F,"Lysine--tRNA ligase, cytoplasmic",inhibitor,,,5010 nM
Cc1cccc(Nc2ccccc2C(=O)O)c1C,"UDP-glucuronosyltransferase 2B7 (UGT2B7, Homo sapiens, UniProt P16662)","enzyme activity, inhibitor","human liver microsomes, 2% BSA",together with: zidovudine below Km,12000 nM
COc1cc(N2CCC(N3CCN(C)CC3)CC2)ccc1Nc1ncc(Cl)c(Nc2ccccc2P(C)(C)=O)n1,"Solute carrier family 22 member 1 (SLC22A1, Homo sapiens, UniProt O15245)","transport, inhibitor",HEK cells transfected with SLC22A1,together with: MPP+ substrate,6490 nM
CC1=NOC(CNC(=O)c2cnc3c(c(C)nn3C)c2Cl)C1 (stereo not drawn),"60 kDa heat shock protein, mitochondrial with HSP10",HSP60/10-mediated MDH refolding,,"30 min, preincubation before ATP, together with: denatured malate dehydrogenase",> 100000 nM
COc1cc(/C=N/n2c(C)nc3ccc(Br)cc3c2=O)ccc1OCc1ccc(Cl)cc1,"Xanthine dehydrogenase/oxidase (XDH, Bos taurus, UniProt P80457)","enzyme activity, inhibitor",,,32200 ± 2120 nM
Cn1cnc(Cn2ccc3ccc(CNCc4[nH]c5ccccc5c4[C@H]4NC(=O)c5ccc(O)cc54)cc32)c1,"GTPase KRas, GppNHp-bound; with RAF1-RBD (KRAS, Homo sapiens, UniProt P01116)","binding, HTRF",,,5100 nM
CC1(F)CN(C(=O)Cn2c(=O)c(C(=O)NCc3ccc(Cl)cc3)cc3nc(N4CCNC4=O)cnc32)C1,DNA polymerase catalytic subunit,enzyme activity,,at least duplicate,390 nM
Cc1cc2c(cc1N1C(=O)c3cccc4c(N5CCOCC5)ccc(c34)C1=O)n(C)c(=O)n2C,TAF1L BD2,HTRF,,GST-tagged protein,309 nM
CN1CCN(c2ccc(Nc3ncc4cc(C#N)c(=O)n(C5CCCC5)c4n3)cc2)CC1,"Mitogen-activated protein kinase kinase kinase 3 (MAP3K3, Homo sapiens, UniProt Q99759)",,,,> 10000 nM
C[C@@H]1CN(C(=O)c2ccc(NC(=O)c3cc(O[C@H](C)c4c(Cl)ccc(F)c4Cl)c(N)nn3)cc2)C[C@H](C)N1,NTRK3,"enzyme activity, inhibitor",,together with: 1 mM ATP,20 nM
Fc1ccc(-c2nc[nH]c2-c2ccncc2)cc1,CSNK1E,inhibitor,,,120 ± 23.2 nM
O=C(CCC(=O)N[C@@H](CCCCNC(=S)NCCc1cc(O)n[nH]1)C(=O)N[C@@H](Cc1c[nH]c2ccccc12)C(=O)NC1CCC1)NCCOCCOCCCCCCCl,"NAD-dependent protein deacylase sirtuin-5, mitochondrial (SIRT5, Homo sapiens, UniProt Q9NXA8)","enzyme activity, inhibitor",,,46000 ± 2000 nM
Fc1ccc(-c2nc(-c3cccnc3)[nH]c2-c2ccncc2)cc1,CSNK1E,inhibitor,,,581 ± 118 nM
Nc1nsc(C(=O)NCC2CCCCC2)c1F,"Lysine--tRNA ligase, cytoplasmic","enzyme activity, inhibitor",,,1260 nM
Cc1[nH]c(C)c(S(=O)(=O)Nc2cc(Cl)ccc2C(F)(F)F)c1C(=O)N1CCC(F)(F)C1,DRD2,,,,> 100000 nM
Cc1cc2c(cc1N1C(=O)c3cccc4c(CCCCO)ccc(c34)C1=O)n(C)c(=O)n2C,TAF1L BD2,HTRF,,GST-tagged protein,43.7 nM
CC(C)C[C@H](NC(=O)[C@H](CCc1ccccc1)NC(=O)CN1CCOCC1)C(=O)N[C@@H](Cc1ccccc1)C(=O)N[C@@H](CC(C)C)C(=O)[C@@]1(C)CO1,"Proteasome subunit beta type-1/Psmb5, β5 subunit (Mus musculus, UniProt O09061+O55234)",proteasome subunit activity,Ba/F3 BCR-ABL1 H396P,1 h pulse,4.05 nM
CCc1ccc(NS(=O)(=O)c2c(C)[nH]c(C)c2C(=O)N2CCC(F)(F)C2)cc1Cl,DRD2,,,,> 100000 nM
CC[C@@H]1[C@H](F)C(=O)N[C@@H]1COc1nccc2cc(C(N)=O)c(OC)cc12,"SNF-related serine/threonine-protein kinase (SNRK, Homo sapiens, UniProt Q9NRH2)","ATP-site probe binding, ActivX profiling",THP-1 cell lysate,Lys2 site,> 5000 nM
CN(C)C(=O)c1cc2cnc(Nc3cccc(-c4cccc5c(=O)cc(N6CCOCC6)oc45)c3)nc2n1C1CCCC1,CDK6 with cyclin D1,"inhibitor, HotSpot radiometric kinase",,"together with: 10 µM ATP, cyclin D1",3380 nM
Cc1cc(Nc2ccc3c(c2)CCCC3)n2ccnc2n1,"Dihydroorotate dehydrogenase (quinone), mitochondrial (DHODH, Homo sapiens, UniProt Q02127)","enzyme activity, inhibitor",,,> 100000 nM
CN1CCC[C@H]1COc1nccc(-c2noc([C@@]3(C)CCCc4sc(N)c(C#N)c43)n2)n1,"GTPase KRas, with SOS1 (KRAS, Homo sapiens, UniProt P01116, C118S/G12V)","KRAS G12V-SOS1 interaction, inhibitor, AlphaScreen",,geometric mean,135 nM
C[C@@H]1O[C@@H](Oc2c(-c3cc(O)c(O)c(O)c3)oc3cc(O)cc(O)c3c2=O)[C@H](O)[C@H](O)[C@H]1O,α-glucosidase,enzyme activity,,together with: pNPG substrate,254 µg/mL
C=C(C)C1CC=C(C)CC1 (stereo not drawn),α-glucosidase,,,together with: 4-nitrophenyl α-D-glucopyranoside,> 30000 µg/mL
O=C(Nc1ccccc1OS(=O)(=O)Cc1ccccc1)c1ccc2ncccc2c1,"P2X purinoceptor 7 (P2RX7, Homo sapiens, UniProt Q99572)","calcium mobilization, antagonist",MCF7 transfected with P2RX7,together with: 100 µM BzATP,8400 nM and 8390 nM
Cc1cccc(C)c1-c1nc(-c2ccc(F)cc2)c(-c2ccncc2)[nH]1,CSNK1E,inhibitor,,,99.5 ± 28 nM
COc1ccccc1-c1nccc(COc2ccccc2C[C@@H](Oc2ccnc3sc(-c4ccc(F)cc4)c(-c4ccc(OCCN5CCN(C)CC5)c(Cl)c4C)c23)C(=O)O)n1,MCL1,"binding, quench",,,0.1 nM
Cc1[nH]cc(C(=O)N2CCC(F)(F)C2)c1S(=O)(=O)Nc1ccc(C(F)(F)F)c(Cl)c1,DRD2,,,,> 100000 nM
COCCN1CCN(c2nccc(-c3noc([C@@]4(C)CCCc5sc(N)c(C#N)c54)n3)n2)[C@@H](C)C1,KRAS with SOS1,"KRAS wild type-SOS1 interaction, inhibitor, AlphaScreen",,geometric mean,328 nM
CS(=O)(=O)c1ccc(-c2noc(C(F)(F)F)c2-c2ccccc2)cc1,PTGS2,inhibitor,,,1 nM
Cc1nn(-c2nc3c(F)cc(F)cc3s2)c(O)c1C(c1ccc(C(F)(F)F)cc1)c1c(C)nn(-c2nc3c(F)cc(F)cc3s2)c1O,"Cyclic GMP-AMP synthase (CGAS, Homo sapiens, UniProt Q8N884)","enzyme activity, inhibitor, pyrophosphatase-coupled",,human cGAS,9930 nM and 11600 nM
Cc1[nH]c(C)c(S(=O)(=O)Nc2ccc(C(F)(F)F)c(Cl)c2)c1C(=O)N1CCC(=O)C1,DRD2,,,,> 100000 nM
Cc1cc2c(cc1N1C(=O)c3cccc4c(N5CCCC5)ccc(c34)C1=O)n(C)c(=O)n2C,TAF1L BD2,HTRF,,GST-tagged protein,97.1 nM
CSc1ccccc1C(=O)NCCn1cc(C(=O)NCc2cccc(C)n2)c(=O)c2cc3c(cc21)OCO3,"Cytochrome P450 2C19 (CYP2C19, Homo sapiens, UniProt P33261)","enzyme activity, inhibitor",human liver microsomes,"20 min, 30 min NADPH preincubation, together with: mephenytoin 50 µM",> 100000 nM
CN(C)C(=O)c1cc2cnc(Nc3ccc4c(=O)cc(N5CCOCC5)oc4c3)nc2n1C1CCCC1,CDK6 with cyclin D1,"inhibitor, HotSpot radiometric kinase",,"together with: 10 µM ATP, cyclin D1",12.9 nM
O=C(Nc1cccnn1)N1CCC(=Cc2cccc(Oc3ccc(C(F)(F)F)cn3)c2)CC1,"Fatty-acid amide hydrolase 1 (FAAH, Homo sapiens, UniProt O00519)","enzyme activity, inhibitor",COS cells expressing human FAAH,3 h,3.4 nM
